{"data": "Results of several laboratories", "target": "Protein kinase C theta type (PRKCQ, Homo sapiens, UniProt Q04759)", "note": "Each line is one published result; not all experiments were run side by side."}
{"test": "kinase activity", "setting": "0.1 µM, added: ATP at Km", "quantity": "inhibition", "result": "-4.7%", "SMILES": "CCn1cc(C(=O)O)c(=O)c2c(N)c(F)c(NC3CCCCC3)cc21"}
{"test": "KinomeScan", "setting": "0.1 µM", "scale": "reference: untreated", "quantity": "remaining binding", "result": "77%", "SMILES": "CNC1C[S+]2CC[S+]3CC[S+](C1)[Ru-4]321([N]=C=S)[n]2c3ccc(OC)cc3c3c4c(c5cc(F)c[n+]1c5c32)C(=O)NC4=O (stereo not shown)"}
{"test": "binding, competition with immobilised ligand", "setting": "1 µM", "quantity": "remaining binding", "result": "85%", "SMILES": "CNC(=O)C1CCN(c2cc(C)c(F)cc2NC(=O)c2ccc(-c3cc(O)ccc3C)c(C)c2)CC1"}
{"test": "enzyme activity, inhibitor", "setting": "0.1 µM", "quantity": "inhibition", "result": "8%", "SMILES": "CN1CCN(Cc2ccc(-c3ccc(CO[C@H]4CCC[C@@H]4NC(=O)c4cc(-c5cnn(C)c5)cnc4N)cc3)cc2)CC1"}
{"test": "enzyme activity, inhibitor", "setting": "1 µM", "quantity": "activity vs control", "result": "112%", "SMILES": "CNC(=O)C[C@H](Cc1ccc(C#N)cc1)NC(=O)c1cc(-c2ccc(CN[C@H](C)c3ccc(C)cc3)o2)ccc1Cl"}
{"test": "cell-free assay, competition with immobilised ligand", "setting": "3 µM", "quantity": "remaining binding", "result": "80%", "SMILES": "COc1c(Cl)cccc1Nc1c(-c2ccncc2C#C[C@@]2(C)CCCN2C(=O)/C=C/CN(C)C)[nH]c2c1C(=O)NCC2"}
{"test": "enzyme activity, inhibitor", "setting": "10 µM", "quantity": "activity vs control", "result": "128%", "SMILES": "O=C(Cc1ccc(OCc2ccccc2)cc1)NC1(C(=O)O)CCN(C(=O)c2ccc(-c3cccc(Cl)c3)cc2)CC1"}
{"test": "kinase activity", "setting": "0.1 µM", "quantity": "inhibition", "result": "13%", "SMILES": "C=CC(=O)Nc1cccc(-c2cnc3[nH]cc(C(=O)NC(C)(C)C)c3n2)c1"}
{"test": "binding, competition with immobilised ligand", "setting": "1 µM", "quantity": "remaining binding", "result": "30%", "SMILES": "CCN1CCN(Cc2ccc(NC(=O)c3ccc(C)c(NC(=O)c4cncc(-c5cccs5)c4)c3)cc2C(F)(F)F)CC1"}
{"test": "cell-free assay, competition with immobilised ligand", "setting": "10 µM", "quantity": "remaining binding", "result": "90%", "SMILES": "CC(C)=CC1OC(C)(C)C2C=C3C(=O)C(Cl)=CC(O)C3C3C(O)C4OC4C(=O)C132 (stereo not shown)"}
{"test": "enzyme activity", "setting": "1 µM", "scale": "reference: DMSO control", "quantity": "remaining activity", "result": "87.2%", "SMILES": "Nc1ncc(-c2cc(-c3cnn(CC(F)(F)F)c3)ncc2F)nc1C(=O)NC1CNCC(F)C1 (stereo not shown)"}
{"test": "enzyme activity, inhibitor", "setting": "10 µM", "quantity": "inhibition", "result": "14%", "SMILES": "NC(=O)[C@@H](O)C[C@H]1CCc2sc3ncnc(O[C@H]4CC[C@H](N5CCOCC5)CC4)c3c21"}
{"test": "cell-free assay, competition with immobilised ligand", "setting": "1 µM", "quantity": "remaining binding", "result": "98%", "SMILES": "C=CC(=O)N1CCCC(n2c(=O)c3ncccc3n(Cc3ccc(Oc4ccccc4)cc3)c2=O)C1 (stereo not shown)"}
{"test": "cell-free assay", "setting": "1 µM", "quantity": "inhibition", "result": "2%", "SMILES": "C=CC(=O)N1Cc2nc(-c3cc(-c4cc(Cl)cnc4Cl)c(F)cc3F)n(-c3ccncn3)c2C1"}
{"test": "kinase activity, KinaseProfiler", "setting": "0.03 µM, species human", "scale": "reference: control", "quantity": "remaining activity", "result": "85%", "SMILES": "COc1ccc(NC(=O)Nc2ccc3c(c2)C(=O)N(C(C)CO)CC(C)C(CN(C)Cc2ccc4c(c2)OCO4)O3)cc1 (stereo not shown)"}
{"test": "enzyme activity", "setting": "10 µM", "quantity": "inhibition", "result": "-7%", "SMILES": "Cc1cccc(O[C@H]2CCC[C@@H](C(C)CNCc3ccncc3)C2)c1 (relative stereo)"}
{"note": "Some of these lines once more:"}
{"test": "binding, competition with immobilised ligand", "setting": "1 µM", "quantity": "remaining binding", "result": "85%", "SMILES": "CNC(=O)C1CCN(c2cc(C)c(F)cc2NC(=O)c2ccc(-c3cc(O)ccc3C)c(C)c2)CC1"}
{"test": "enzyme activity, inhibitor", "setting": "0.1 µM", "quantity": "inhibition", "result": "8%", "SMILES": "CN1CCN(Cc2ccc(-c3ccc(CO[C@H]4CCC[C@@H]4NC(=O)c4cc(-c5cnn(C)c5)cnc4N)cc3)cc2)CC1"}
